Measured values of several laboratories.
Compare with care: the assays were run in different laboratories. Several values in a cell are separate wells, animals, samples, runs or records.
Organism: Schistosoma mansoni

Compound = CC1=C(Cc2cn(CC#N)nn2)C(=O)c2ccccc2C1=O; system = adult worms; setting = 10 µM, 72 h; quantity = killing; result = 45.4%
Compound = CN1CCN(c2ccc(-c3ccc4c(Nc5ncccn5)cnnc4c3)cc2)CC1; system = adult worms; setting = 10 µM, 48 h; how to read = direction not given; quantity = phenotypic severity score; result = 0
Compound = CNCCCOc1cc(F)c(-c2c(Cl)nc(-c3cccs3)nc2N[C@H](C)C(C)C)c(F)c1; assay = worm motility; system = adult worms ex vivo; setting = 24 h; quantity = EC50; result = > 5 µM
Compound = O=C(C1CCCCC1)N1CC(=O)N2CCc3ccccc3C2C1 (racemic); system = infected mice; setting = intraperitoneal, 50 mg/kg 1 times daily for 3 days, 72 h; quantity = worm burden reduction; result = 68%
Compound = CC1=C(Cn2ccnn2)C(=O)c2ccccc2C1=O; system = NTS; how to read = baseline: L6 CC50 over IC50; quantity = selectivity index; result = 5.9
Compound = O=C(C1CCOCC1)N1CC(=O)N2CCc3ccccc3[C@@H]2C1; system = adult worms; setting = 4 h; quantity = EC50; result = 1.55 µM
Compound = CC(C)[C@@H](C)Nc1nc(-c2cccs2)nc(Cl)c1-c1ccc(F)cc1; assay = worm motility; system = adult worms ex vivo; setting = 24 h; quantity = EC50; result = 5 µM
Compound = COc1ccc(Nc2cnnc3cc(-c4ccc(S(=O)(=O)N5CCN(C)CC5)cc4)ccc23)cc1Cl; system = adult worms; setting = 10 µM, 1 h; how to read = direction not given; quantity = phenotypic severity score; result = 1
Compound = CC(C)[C@@H](C)Nc1nc(-c2cccs2)nc(Cl)c1-c1c(F)cc(C#N)cc1F; assay = worm motility; system = adult worms ex vivo; setting = 24 h; quantity = EC50; result = 1.02 µM
Compound = O=C1Nc2ccccc2C2(O)CCN3C12c1ccccc1S3(=O)=O (centres unmarked); system = adult worms; setting = ex vivo; quantity = IC50; result = 3.3 µM
Compound = Cc1ccc(Nc2cnnc3ccc(-c4ccc(S(=O)(=O)N5CCN(C)CC5)cc4)cc23)cn1; system = adult worms; setting = 10 µM, 5 h; how to read = direction not given; quantity = phenotypic severity score; result = 0
Compound = Cc1cc(N2C(=O)NC(C)(C)C2=O)cc(C(F)(F)F)n1; system = NMRI mice, infected; setting = oral, 100 mg/kg single dose, 21 days post-treatment, treated day 49 post-infection; quantity = worm burden reduction; result = 21%
Compound = CC1=C(Cc2cn(CCN3CCC(=O)CC3)nn2)C(=O)c2ccccc2C1=O; system = adult worms; setting = 25 µM, 72 h; quantity = killing; result = 55.5%
Compound = CC1(C)NC(=O)N(c2ccc(F)c(F)c2)C1=O; system = NMRI mice, infected; setting = oral, 100 mg/kg single dose, 21 days post-treatment, treated day 49 post-infection; quantity = worm burden reduction; result = 64%
Compound = CC1=C(Cc2cn(CCOS(=O)(=O)c3ccc(C)cc3)nn2)C(=O)c2ccccc2C1=O; system = adult worms; setting = 10 µM, 48 h; quantity = killing; result = 35.6%
Compound = CN1CCN(c2ncc(-c3ccc4c(Nc5ncccn5)cnnc4c3)cn2)CC1; system = adult worms; setting = 10 µM, 1 h; how to read = direction not given; quantity = phenotypic severity score; result = 0
Compound = O=C(C1CCCCC1)N1CC(=O)N2CCc3ccccc3C2C1 (centres unmarked); system = mice; setting = 100 mg/kg daily x4, dosed day 7, perfused 49; quantity = male worms recovered; result = 3 worms per mouse and 8 worms per mouse and 19 worms per mouse and 12 worms per mouse
Compound = CC1=C(Cn2cc([Si](C)(C)C)nn2)C(=O)c2ccccc2C1=O; system = adult worms; setting = 25 µM, 24 h; quantity = killing; result = 50.9%
Compound = COc1ccc(Nc2cnnc3ccc(-c4ccc(N5CCN(C)CC5)cc4)cc23)cc1; system = adult worms; setting = 10 µM, 1 h; how to read = direction not given; quantity = phenotypic severity score; result = 0
Compound = CC1(CNc2nc(-c3cccs3)nc(Cl)c2-c2c(F)cc([N+](=O)[O-])cc2F)COC1; assay = motility; system = adult worms, ex vivo; setting = 24 h; quantity = EC50; result = 3.09 µM
Compound = O=C1NC2(CCS(=O)(=O)CC2)C(=O)N1c1ccc(F)c(C(F)(F)F)c1; system = NMRI mice, infected; setting = oral, 100 mg/kg single dose, 21 days post-treatment, treated day 49 post-infection; quantity = worm burden reduction; result = 27%
Compound = Fc1cc(F)c(-c2c(Cl)nc(-c3cccs3)nc2NC2COC2)c(F)c1; assay = worm motility; system = adult worms ex vivo; setting = 24 h; quantity = EC50; result = 1.82 µM
Compound = CN1CCN(S(=O)(=O)c2ccc(-c3ccc4c(Nc5cnccn5)cnnc4c3)cc2)CC1; system = adult worms; setting = 10 µM, 5 h; how to read = direction not given; quantity = phenotypic severity score; result = 0
Compound = CC1=C(Cn2cc(C(C)(C)O)nn2)C(=O)c2ccccc2C1=O; system = adult worms; setting = 25 µM, 72 h; quantity = killing; result = 45.1%
Compound = CC1(CNc2nc(-c3cccs3)nc(Cl)c2-c2c(F)cc(N)cc2F)COC1; assay = motility; system = adult worms, ex vivo; setting = 24 h; quantity = EC50; result = 0.037 µM
Compound = CC1(C)NC(=O)N(c2cc(C(F)(F)F)c(F)cc2C#N)C1=O; system = NMRI mice, infected; setting = oral, 100 mg/kg single dose, 21 days post-treatment, treated day 49 post-infection; quantity = worm burden reduction; result = 14%
Compound = CC1=C(Cn2cncn2)C(=O)c2ccccc2C1=O; system = adult worms; setting = 10 µM, 72 h; quantity = killing; result = 50%
Compound = CS(=O)(=O)CCNc1nc(-c2cccs2)nc(Cl)c1-c1c(F)cc(F)cc1F; assay = worm motility; system = adult worms ex vivo; setting = 24 h; quantity = EC50; result = 0.61 µM
Compound = CC1(C(F)(F)F)NC(=O)N(c2ccc(F)c(C(F)(F)F)c2)C1=O (centres unmarked); system = juvenile, infected mice; setting = oral, 50 mg/kg single dose; quantity = worm burden reduction; result = 7.1%
Compound = O=C(C1CCSCC1)N1CC(=O)N2CCc3ccccc3[C@@H]2C1; system = adult worms; setting = 4 h; quantity = EC50; result = 0.197 µM
Compound = COc1ccc(Nc2cnnc3cc(-c4cnc(N5CCN(C)CC5)nc4)ccc23)cc1Cl; system = adult worms; setting = 10 µM, 5 h; how to read = direction not given; quantity = phenotypic severity score; result = 1
Compound = CC(C)(C)CNc1nc(-c2cccs2)nc(Cl)c1-c1c(F)cc(C#N)cc1F; assay = worm motility; system = adult worms ex vivo; setting = 24 h; quantity = EC50; result = < 0.3 µM
Compound = CC1=C(Cn2cc(COC3COC3)nn2)C(=O)c2ccccc2C1=O; system = adult worms; setting = 25 µM, 72 h; quantity = killing; result = 52.9%
Compound = Cc1ccc(Nc2cnnc3ccc(-c4ccc(N5CCCN(C)CC5)cc4)cc23)cn1; system = adult worms; setting = 10 µM, 1 h; how to read = direction not given; quantity = phenotypic severity score; result = 0
Compound = CC1(C(F)F)NC(=O)N(c2ccc(F)c(C(F)(F)F)c2)C1=O (centres unmarked); system = adult, infected mice; setting = oral, 50 mg/kg single dose; quantity = worm burden reduction; result = 95%

A few entries again:
Compound = COc1ccc(Nc2cnnc3ccc(-c4ccc(N5CCN(C)CC5)cc4)cc23)cc1; system = adult worms; setting = 10 µM, 1 h; how to read = direction not given; quantity = phenotypic severity score; result = 0
Compound = CC1(CNc2nc(-c3cccs3)nc(Cl)c2-c2c(F)cc([N+](=O)[O-])cc2F)COC1; assay = motility; system = adult worms, ex vivo; setting = 24 h; quantity = EC50; result = 3.09 µM
Compound = O=C1NC2(CCS(=O)(=O)CC2)C(=O)N1c1ccc(F)c(C(F)(F)F)c1; system = NMRI mice, infected; setting = oral, 100 mg/kg single dose, 21 days post-treatment, treated day 49 post-infection; quantity = worm burden reduction; result = 27%
Compound = Fc1cc(F)c(-c2c(Cl)nc(-c3cccs3)nc2NC2COC2)c(F)c1; assay = worm motility; system = adult worms ex vivo; setting = 24 h; quantity = EC50; result = 1.82 µM
